Results of several laboratories.
Several values in a cell are separate wells, animals, samples, runs or records. Numbers after ± are the reported error.
gyrA/gyrB: DNA gyrase (gyrA/gyrB, Escherichia coli, UniProt P0AES4+P0AES6)
Urease: Urease (Canavalia ensiformis, UniProt P07374)

For CC1C(=NNC(=O)c2ccncc2)C(C)C(c2ccc(Br)cc2)OC1c1ccc(Br)cc1 (stereo not shown), the IC50 was 16.1 µM (gyrA/gyrB).
CN(C)CCCOc1ccc(C2Sc3ccccc3NC3=C2C(=O)c2ccccc23)cc1 (racemic) gave an IC50 of over 5 µM (Cytochrome b (MT-CYB, Homo sapiens, UniProt P00156); enzyme activity, inhibitor).
COC(=O)c1ccc2c(c1)NC(=O)/C2=C(\Nc1ccc(N(C)C(=O)CN2CCN(CCCCNC(=O)CCc3cn(CCCCN4C[C@@H]5C[C@H]4C(=O)N[C@@H](CC(C)C)C(=O)N[C@@H](CCCNC(=N)N)C(=O)NCC(=O)N[C@@H](CC(=O)O)C(=O)N[C@@H](CC(C)C)C(=O)N5)nn3)CC2)cc1)c1ccccc1 gave an IC50 of 0.018 µM (KDR (Homo sapiens, UniProt P35968); enzyme activity, inhibitor, radiometric).
CC(C)[C@H](NC(=O)c1ccc(CCc2nc3c(c(=O)[nH]2)CCC3)cc1)C(=O)NC1COC1 has an IC50 of over 5 µM (MMP1 (Homo sapiens, UniProt P03956); enzyme activity, inhibitor).
CC[C@H](C)[C@H](NC(=O)[C@H](Cc1ccccc1)NC(=O)[C@@H]1CCNC(=O)NCCC[C@H](NC(=O)[C@H](CO)NC(=O)[C@H](CC(C)C)NC(=O)[C@H](CCCNC(=N)N)NC(=O)[C@H](CCSC)NC(=O)[C@H](C)N)C(=O)N[C@@H](Cc2ccccc2)C(=O)N[C@@H](Cc2ccccc2)C(=O)N[C@@H](CCCNC(=N)N)C(=O)N1)C(=O)N[C@@H](CC(C)C)C(=O)N[C@@H](CCC(N)=O)C(=O)N[C@@H](CCCNC(=N)N)C(=O)N[C@@H](CCCCN)C(=O)N[C@@H](CCCCN)C(=O)O has an IC50 of over 1 µM (histidine kinase ComD (Streptococcus pneumoniae serotype 2, UniProt A0A0H2ZM50); Streptococcus pneumoniae cells, Streptococcus pneumoniae).
With CSCC[C@H](NC(=O)[C@H](CC(C)C)NC(=O)[C@H](Cc1cnc[nH]1)NC(=O)CNC(=O)[C@@H](NC(=O)[C@H](C)NC(=O)[C@H](Cc1c[nH]c2ccccc12)NC(=O)[C@H](CCC(N)=O)NC(=O)[C@H](N)Cc1ccccc1)C(C)C)C(N)=O the IC50 was 0.00021 to 0.0021 µM (NMBR (Homo sapiens, UniProt P28336); NMBR activity, cell-based).
Nc1nc2c(c(=O)[nH]1)[n+](Cc1ccc(S(=O)(=O)F)cc1)cn2[C@@H]1O[C@H](COP(=O)(O)O)[C@@H](O)[C@H]1O has an IC50 of 0.067 µM (NT5C3B (Homo sapiens, UniProt Q969T7); m7GMP dephosphorylation, inhibitor, malachite green; covalent binding conditions).
For C[C@H](CCC(=O)N[C@H](CC(c1c[nH]c2ccc(N=[N+]=[N-])cc12)c1c[nH]c2ccc(N=[N+]=[N-])cc12)C(=O)O)[C@H]1CC[C@H]2[C@@H]3CC[C@@H]4C[C@H](O)CC[C@]4(C)[C@H]3CC[C@]12C (stereo partly shown), the IC50 was 3.3 ± 0.1 µM (ST6GAL1 (Homo sapiens, UniProt P15907); enzyme activity, UPLC).
The IC50 of CC(C)[C@H](NC(=O)N[C@H](C(=O)N[C@H]1/C=C/CCNC(=O)/C=C/[C@H](C(C)C)NC1=O)C(C)C)C(=O)O is reported as 0.059 µM (Psmb5 (Mus musculus, UniProt O55234); chymotrypsin-like activity, inhibitor; mouse constitutive proteasome; together with: Suc-LLVY-AMC).
With CN(Cc1ccccc1)CP(=O)(O)O the IC50 was over 1000 µM (Urease; inhibitor; pH 7).
The IC50 of Cc1cccc(-c2nc(Nc3ccncn3)c3sccc3n2)n1 is reported as 42 µM (Cytochrome P450 2D6 (CYP2D6, Homo sapiens, UniProt P10635); inhibitor).
The IC50 of O=C(CCCCCCC(=O)Nc1ccccc1N=Nc1ccccc1)NO is reported as 0.057 ± 0.011 µM (HDAC1 (Homo sapiens, UniProt Q13547); enzyme activity, inhibitor; cis isomer, irradiated).
The IC50 of NCCCCCC(=O)NC(CCC(=O)N[C@H](CCCOP(=O)(O)NC(CCC(=O)O)C(=O)O)C(=O)O)C(=O)O (stereo partly shown) is reported as 0.019 µM (FOLH1 (Homo sapiens, UniProt Q04609)).
For N[C@H](C(=O)N1CCCC1)C1CCN(c2nccc3c(-c4ncc(Cl)cc4Cl)cccc23)CC1, the IC50 was 0.106 µM (PADI3 (Homo sapiens, UniProt Q9ULW8); enzyme activity, inhibitor, absorbance).
Cc1cc(S(=O)(=O)Nc2ncccn2)c(F)cc1N(C)C1CCN([C@H](C)c2ccccc2)CC1 gave an IC50 of 166 µM (SCN8A (Homo sapiens, UniProt Q9UQD0, R1626A); ion current, inhibitor, patch clamp; R1626A mutant).
Cc1cc(F)ccc1S(=O)(=O)NC(C)C(N)=O (stereo not shown) has an IC50 of 7.83 µM (Urease; enzyme activity, inhibitor, absorbance).
For NCP(=O)(O)O, the IC50 was 432 µM (Urease; enzyme activity, inhibitor, absorbance; pH 7).
With N#Cc1cc(C(=O)c2ccc3ccccc3c2O)c[nH]c1=O the IC50 was 27.9 µM (PTGS2 (Ovis aries, UniProt P79208); enzyme activity, inhibitor, ELISA).
The IC50 of CC[C@H](C)[C@H](NC(=O)[C@H](CCCNC(=N)N)NC(=O)[C@H](CCCNC(=N)N)NC(=O)[C@@H]1CCCN1C(=O)[C@@H]1CCCN1C(=O)[C@H](CCCNC(=N)N)NC(=O)[C@@H]1CCCN1C(=O)[C@H](CCCNC(=N)N)NC(=O)[C@@H]1CCCN1C(=O)[C@H](CC(C)C)NC(=O)[C@H](Cc1ccc(O)cc1)NC(=O)[C@@H]1CCCN1C(=O)[C@@H]1CCCN1C(=O)[C@H](CCCCN)NC(=O)[C@H](CC(=O)O)NC(=O)[C@@H](NC(=O)c1cn(C2CC2)c2cc(N3CCNCC3)c(F)cc2c1=O)C(C)C)C(=O)N[C@@H](Cc1ccc(O)cc1)C(=O)N[C@@H](CC(N)=O)C(=O)N[C@@H](CCCNC(=N)N)C(N)=O is reported as over 10 µM (gyrA/gyrB; enzyme activity, inhibitor).
The IC50 of O=C1C=CC(=O)C(c2cc(Cl)ccc2Cl)=C1 is reported as ~0.1 µg/mL and 0.1 µg/mL (PTPN11 (Homo sapiens, UniProt Q06124); enzyme activity, inhibitor).
CC(=O)N[C@@H](Cc1ccccc1)C(=O)N[C@@H](CC(C)C)C(=O)N[C@H](C(=O)N[C@@H](CC(=O)O)C(=O)CCl)[C@@H](C)O gave an IC50 of 5.22 µM (Caspase-8 (CASP8, Homo sapiens, UniProt Q14790); enzyme activity, inhibitor, fluorescence).
With CC[C@H](C)[C@H](NC(C)=O)C(=O)N[C@@H](C)C(=O)N[C@@H](CCC(=O)O)C(=O)N[C@@H](CCC(N)=O)C(=O)N[C@@H](CC(C)C)C(=O)N[C@@H](CCCNC(=N)N)C(=O)N[C@@H](CCCNC(=N)N)C(=O)N[C@@H](Cc1cccc(OS(=O)(=O)F)c1)C(=O)NCC(=O)N[C@@H](CC(=O)O)C(=O)N[C@@H](CCCNC(=N)N)C(=O)N[C@@H](Cc1ccccc1)C(N)=O the IC50 was over 25 µM (MCL1 (Homo sapiens, UniProt Q07820); BIM BH3 peptide binding, inhibitor, DELFIA displacement; 2 h preincubation).
COc1c(OCCOCCOCCOCCOCCOCCOCCOc2cccc(C(=O)C3CCN(CCc4ccc(F)cc4)CC3)c2OC)cccc1C(=O)C1CCN(CCc2ccc(F)cc2)CC1 has an IC50 of 0.284 µM (HTR2A (Homo sapiens, UniProt P28223); phosphorylation in cells, antagonist).
CCCCCc1cc(O)c2c(c1)OC(C)(C)C1CCC(C(=O)OC3OC(C(=O)O)C(O)C(O)C3O)=CC21 (stereo not shown) gave an IC50 of 2.3 ± 1 µM (Cytochrome P450 2B6 (CYP2B6, Homo sapiens, UniProt P20813); inhibitor; human, pooled liver microsomes; pH 7.4, together with: bupropion).
Nc1ncnc2c1ncn2[C@@H]1O[C@H](CSCCNC(=O)NCCc2ccccc2)[C@@H](O)[C@H]1O has an IC50 of over 50 µM (PRMT6 (Homo sapiens, UniProt Q96LA8); enzyme activity, inhibitor, radiometric).
CC[C@H](C)[C@H](NC(=O)[C@H](C)NC(=O)[C@@H](NC(=O)[C@H](CC(=O)O)NC(=O)[C@H](CCCCN)NC(=O)[C@H](CO)NC(=O)[C@@H](NC(=O)[C@H](CC(N)=O)NC(=O)[C@H](C)NC(=O)[C@@H](NC(=O)[C@H](CCC(=O)O)NC(=O)[C@H](CCCCN)NC(=O)[C@@H](NC(=O)[C@@H](NC(=O)[C@H](Cc1c[nH]cn1)NC(=O)[C@H](CCCCN)NC(=O)[C@@H](NC(=O)[C@H](CCCCN)NC(=O)[C@H](CCCCN)NC(=O)[C@@H](NC(=O)[C@H](CC(C)C)NC(=O)[C@H](CCCCN)NC(=O)[C@H](CC(N)=O)NC(=O)[C@H](Cc1ccccc1)NC(=O)[C@H](CCCNC(=N)N)NC(=O)[C@H](CCCCN)NC(=O)[C@H](CCCNC(=N)N)NC(=O)[C@H](Cc1ccccc1)NC(=O)CN)C(C)C)C(C)C)[C@@H](C)O)[C@@H](C)CC)[C@@H](C)O)C(C)C)C(C)C)C(=O)N[C@H](C(=O)N[C@@H](C)C(=O)NCC(=O)N[C@@H](CO)C(=O)NCC(=O)N[C@H](C(=O)N[C@@H](C)C(=O)N[C@H](C(=O)NCC(=O)N[C@@H](C)C(=O)N[C@@H](C)C(=O)N[C@@H](CCSC)C(N)=O)C(C)C)C(C)C)C(C)C has an IC50 of over 30 µM (KCNH2 (Homo sapiens, UniProt Q12809); ion current, inhibitor, patch clamp).
The IC50 of N#Cc1cn([C@@H]2O[C@H](CSCC[C@H](N)C(=O)O)[C@@H](O)[C@H]2O)c2ncnc(N)c12 is reported as 0.1 ± 0.002 µM (DNA (cytosine-5)-methyltransferase 3A, with DNMT3L (DNMT3A, Homo sapiens, UniProt Q9Y6K1); inhibitor).
The IC50 of O=C(CCNC(=O)c1ccc(OC(F)(F)F)cc1)N[C@@H]1CCCc2ccccc21 is reported as 0.2 µM (DHODH (Homo sapiens, UniProt Q02127); enzyme activity, inhibitor, absorbance).
CC(=O)CCC1C(=O)NC(C(C)C)C(=O)NC(Cc2cccc(O)c2)C(=O)N2CCCC(N2)C(=O)OC(C(C)=CC=CC(=O)N2CCCCO2)CC=CC=CC(O)C(C)C1O (stereo not shown) has an IC50 of over 50 µM (ABCC2 (Homo sapiens, UniProt Q92887); efflux transport, inhibitor; membrane vesicles; together with: estradiol 17β-glucuronide 1 µM).
Under IC50, O=C(Nc1ccc(-c2ncn[nH]2)cc1Cc1ccccc1)c1cccc(CC2CCCCC2)n1 is recorded as “no inhibition” (Capsid scaffolding protein, protease domain (Human herpesvirus 8 type P, UniProt Q2HRB6); pH 8).
CCCCCCCCCC(=O)N[C@@H](CCCNC(=N)N)C(=O)N[C@H](C(=O)N[C@@H](CCCCN)C(=O)N[C@@H](CCCNC(=N)N)C(=O)CCl)C(C)C has an IC50 of 0.000126 µM (Proprotein convertase subtilisin/kexin type 5 (Homo sapiens, UniProt Q92824); enzyme activity, inhibitor).
